Measurements gathered from unrelated publications.
“And” joins repeats or separate records; there may be more than shown. ± marks the error that the study gave. Converted amounts (≈) assume the structure as drawn.

`O=C(O)C1CN(Cc2ccc(-c3noc(-c4ccc(OCC[18F])c(C(F)(F)F)c4)n3)cc2)C1` gave a tracer uptake of 0.251 %ID/g (rat, spleen; intravenous, 1 h).
For `COC(=O)c1ccc(-c2cn(Cc3cc(Cl)ccc3O[11CH3])nn2)cc1`, “distribution volume VT” read 0.587 mL/cm³ (PET, 1TCM; rhesus macaque, thalamus; dose not given).
Under “cysteine adduct formation”, `C#CC1(NC(=O)C(CC(C)(C)F)NC(c2ccc(-c3ccc(S(C)(=O)=O)cc3)cc2)C(F)(F)F)CC1` (centres unmarked) is recorded as 0% (LC-MS UV trace; aqueous buffer; concentration not given, 23 h, pH 8.0, 37 °C, with: cysteine 10 mM).
`C[C@H]1NSc2nc(=O)c3[nH]ccc3n2Cc2ccc(Cl)cc21` — result for exposure ratio: “not detected” (rat, male, plasma; 125 mg/kg; reference: rat over human 5 mg).
`COc1ccc2c(c1)c(CC(=O)Nc1nnc(CCCCc3ccc(NC(=O)Cc4cccc(OC(F)(F)F)c4)nn3)[se]1)cn2C`: “fraction in plasma” roughly 70% (ICR mouse, whole blood; 0.048 mg/mL, 0.033 h, 37 °C).
With `C[C@H](NC(=O)COC(=O)[C@H](C)NC(=O)CO)C(=O)O` the depolymerization half-life was 167 min (water; pH 6, 25 °C).
`CC12CC(c3ccc(S(C)(=O)=O)cc3)C3=C4CCC(=O)C=C4CCC3C1CCC2(O)C(F)(F)C(F)(F)F` (centres unmarked) has a Vd/F of 691 L (human, plasma; oral, 5 mg, single dose, fasted).
`CN1C(=O)[C@@H](Cc2ccc(O)c(I)c2)NC(=O)CNC(=O)[C@H](Cc2ccc3ccccc3c2)NC(=O)[C@H](CCCNC(=N)N)NC(=O)[C@H]1CCCNC(=O)c1ccc(CNC(=O)CN2CCN(CC(=O)O)CCN(CC(=O)O)CCN(CC(=O)O)CC2)cc1` [lutetium-177 labelled]: “total absorbed dose” 0.95 mGy/MBq (1; human, extrapolated from mouse, liver).
`O=S1(=O)CC2CCCCC2CS1` (centres unmarked) has an AUC(0-24h) of 3150 ± 381 ng·h/mL (male Sprague-Dawley rat, plasma; oral, 9 mg/kg, formulated with β-cyclodextrin).
For `C=C(C)c1ccc([C@H]2C[C@@]3(C)[C@@H](CC[C@@]3(O)C(F)(F)C(F)(F)F)[C@@H]3CCC4=CC(=O)CCC4=C32)cc1`, “maximal oral bioavailability” read 28% (human liver microsomes; 100 % absorption assumed).
With `CN1CCC[C@]1(C)/C=C/S(=O)(=O)NC(=O)Nc1c2c(cc3c1CCC3)CCC2` the AUC(0-inf) was 92800 ng·h/mL (human, plasma; oral, 100 mg, single dose, healthy volunteers).
For `OC1(C(F)(F)F)CCN(c2nc(Nc3ccnc(C(F)(F)F)c3)nc(-c3cccc(C(F)(F)F)n3)n2)C1` (centres unmarked), “biliary excretion of radioactivity” read 5.67 ± 0.75% (Sprague-Dawley rat, both sexes, bile; oral, 10.1 mg/kg, 48 h, with: [14C]-labelled compound; reference: dose).
`O=C(CCc1ccc(CNC(C(=O)OC2CCCC2)C2CCCCC2)cn1)NO` (centres unmarked) has a Cmax of 42.8 ng/mL (human, plasma; oral, 10 mg, single dose, patients).
`O=C([O-])CN1CCN(CC(=O)[O-])CCN(CC(=O)NCCc2ccc3c(c2)C2C=CCC2C(c2cc4c(cc2Br)OCO4)N3)CCN(CC(=O)[O-])CC1.[111In+3]` (centres unmarked) gave a tissue uptake of 0.19 ± 0.03 %ID/g (mice with Hec50 tumour xenograft, heart; 2 h, with: G-1 5 µg blocking).
With `CC(C)CCN(c1nc(C#N)nc(NC2COC2)n1)C(C)c1ccc(F)cc1` (centres unmarked) the brain concentration was 13.8 ng/g (female CD-1 mice; intraperitoneal, 10 mg/kg, 7 h).
With `CCCC[C@@H]1NC(=O)[C@@H](NC(=O)[C@H](CCC(=O)O)NC(=O)CNC(=O)CN2CCN(CC(=O)O)CCN(CC(=O)O)CCN(CC(=O)O)CC2)CCCCNC(=O)C[C@@H](C(N)=O)NC(=O)[C@H](C(C)C)NC(=O)[C@@H]2CCCN2C(=O)[C@H](CCCNC(=N)N)NC(=O)CNC(=O)[C@H](Cc2c[nH]c3ccccc23)NC(=O)[C@H](CCCNC(=N)N)NC(=O)[C@@H](Cc2ccccc2)NC(=O)[C@H](Cc2c[nH]cn2)NC(=O)[C@H](CCC(=O)O)NC1=O` [gallium-67 labelled] the urine excretion was 85.8 ± 3.76% (normal C57 mice; intravenous, 0.037 MBq, 2 h).
For `C[C@H]1Nc2nc(=O)c3[nH]ccc3n2Cc2ccc(Cl)cc21`, the exposure ratio was no less than 33 (Sprague-Dawley rat, both sexes, plasma; oral, 125 mg/kg/day; reference: rat over human clinical doses).
The mRNA level of `O=c1nc(NO)ccn1[C@@H]1O[C@H](CO)[C@@H](O)[C@H]1O` is reported as less than 0.1 fold (RT-PCR, measured: CYP3A18; normal rat, liver; oral, 80 mg/kg twice daily, 5 days; reference: untreated rats).
`CCCC[C@H](NC(=O)CNC(=O)CNC(=O)CN1CCN(CC(=O)O)CCN(CC(=O)O)CCN(CC(=O)O)CC1)C(=O)N[C@H]1CC(=O)NCCCC[C@@H](C(N)=O)NC(=O)[C@H](Cc2c[nH]c3ccccc23)NC(=O)[C@H](CCCNC(=N)N)NC(=O)[C@@H](Cc2ccccc2)NC(=O)[C@H](Cc2c[nH]cn2)NC1=O` [copper-64 labelled] gave a urinary excretion of 46 ± 4.07% (C57 mouse female B16/F1 melanoma, urine; intravenous, 0.037 MBq, 0.5 h).
For `CC(C)(O)c1ncc([S@](N)(=O)=NC(=O)Nc2c3c(cc4c2CCC4)CCC3)s1`, the Cmax was 4670 ng/mL (human, plasma; oral, 100 mg, single dose, fasted, healthy volunteers).
With `COc1ccc(N2CCOCC2)c2sc(NC(=O)c3ccnc(CN4CCCC4)c3)nc12` the pKa (basic) was 8.6 (photometric titration).
The relative error of `COc1ccc([C@@H]2CC(=O)c3c(O)cc(O[C@@H]4O[C@H](CO[C@@H]5O[C@@H](C)[C@H](O)[C@@H](O)[C@H]5O)[C@@H](O)[C@H](O)[C@H]4O)cc3O2)cc1O` is reported as -3.99% (rat plasma; 31.25 ng/mL, 12 h, room temperature, autosampler stability; reference: nominal concentration).
`COc1ccc2cc(-c3ccc(-c4ccc(C)cn4)nc3)oc2c1` — result for “fluorescence quantum yield”: 0.84 (hexanes; with: quinine bisulfate reference).
`C[C@]12C[C@H](c3ccc(S(C)(=O)=O)cc3)C3=C4CCC(=O)C=C4CC[C@H]3[C@@H]1CC[C@@]2(O)C(F)(F)C(F)(F)F` gave a fraction unbound of 0.05 (rat, plasma).
`[11CH3]c1ccc2nc(C3CCC3)n(-c3ccc4[nH]ncc4c3)c2n1`: “absorbed radiation dose” 1.8 µSv/MBq (human male, muscle).
With `CC(C)C[C@@H](NC(=O)[C@H](NC(=O)[C@H]1CCCN1)[C@H](C)O)C(=O)N[C@H](Cc1c[nH]cn1)C(=O)N[C@@H](C(=O)N[C@H](Cc1c[nH]cn1)C(=O)N[C@H](CC(N)=O)C(=O)N[C@H](CCCNC(=N)N)C(=O)N[C@H](CCCNC(=N)N)C(=O)N[C@H](CCCNC(=N)N)C(=O)N[C@H](CCCNC(=N)N)C(=O)N[C@H](CCCNC(=N)N)C(N)=O)[C@H](C)O` the alpha half-life was 3 min and 2.76 min (young Beagle dog, plasma; intravenous, 3 mg/kg single dose).
With `CC(C)[C@H](NC(=O)[C@@H]1CCCN1C(=O)[C@H](CCCNC(=N)N)NC(=O)[C@H](CS)NC(=O)[C@H](Cc1c[nH]c2ccccc12)NC(=O)[C@H](CCCNC(=N)N)NC(=O)[C@@H](Cc1ccccc1)NC(=O)[C@H](Cc1c[nH]cn1)NC(=O)[C@H](CCC(=O)O)NC(=O)[C@H](CS)NC(=O)[C@H](CS)NC(=O)CNC(=O)[C@@H]1CC(=O)N[C@@H](CCCNC(=N)N)C(=O)NCC(=O)N[C@@H](CC(=O)O)C(=O)N[C@H](Cc2ccc(O)cc2)C(=O)N1)C(N)=O` [technetium-99m labelled] the excretion was 38.3 ± 8.9% (C57 mice B16/F1 melanoma female, urine; iv, 0.037 MBq, 0.5 h).
For `COc1ccc(CNC[C@@](O)(COCc2ccc(F)cc2)[C@@H]2CC[C@@H](C)C[C@H]2OCc2ccc(F)cc2)cc1`, the permeability was 27.4 ± 1.6 ×10⁻⁶ cm/s (PAMPA-GI; phosphatidylcholine-cholesterol membrane; 500 µM, 4 h, pH 6.5, 37 °C, 5% DMSO).
For `CC(C)c1cnc(-c2cc(Cl)ccc2F)cc1Nc1ccncc1C(=O)NC(CO)CO`, “patients with anaemia” read 0% (patients, phase I monotherapy; oral, dose not given, grade 4).
For `Cc1[nH]nc2c1N=C(c1ccccc1Cl)c1cnc(N3CCOCC3)cc1N2`, the radioactivity recovered was 93% (human male, urine and feces; oral, 10 mg, 120 h; reference: dose).
The tracer uptake of `OCc1cn(Cc2ccc(-c3noc(-c4ccc(OCC[18F])c(C(F)(F)F)c4)n3)cc2)nn1` is reported as 4.3 %ID/g (rat, liver; intravenous, 30 min).
With `O=C(CCCCC[N+]#[C][99Tc-5]([C]#[N+]CCCCCC(=O)N[C@H]1C(O)O[C@H](CO)[C@@H](O)[C@@H]1O)([C]#[N+]CCCCCC(=O)N[C@H]1C(O)O[C@H](CO)[C@@H](O)[C@@H]1O)([C]#[N+]CCCCCC(=O)N[C@H]1C(O)O[C@H](CO)[C@@H](O)[C@@H]1O)([C]#[N+]CCCCCC(=O)N[C@H]1C(O)O[C@H](CO)[C@@H](O)[C@@H]1O)[C]#[N+]CCCCCC(=O)N[C@H]1C(O)O[C@H](CO)[C@@H](O)[C@@H]1O)N[C@H]1C(O)O[C@H](CO)[C@@H](O)[C@@H]1O` (some centres unmarked) the tumour/muscle ratio was 2.89 (dynamic SPECT; nude mouse U87 MG xenograft; 55-60 min; reference: tumour over muscle).
`COCC1CN(C2CCN(c3cc(OC)c(Nc4ncc(Br)c(Nc5ccc6c(c5P(C)(C)=O)OCCO6)n4)cc3C)CC2)C1` — result for “patients with vomiting”: 37% (human; oral, dose not given, sample A patients, any grade).
`CCCC[C@H](NC(=O)[C@H](CCC(=O)O)NC(=O)CNC(=O)CN1CCN(CC(=O)O)CCN(CC(=O)O)CCN(CC(=O)O)CC1)C(=O)N[C@H]1CC(=O)NCCCC[C@@H](C(N)=O)NC(=O)[C@H](Cc2c[nH]c3ccccc23)NC(=O)[C@H](CCCNC(=N)N)NC(=O)[C@@H](Cc2ccccc2)NC(=O)[C@H](Cc2c[nH]cn2)NC1=O` [indium-111 labelled] has a urinary excretion of 91.4 ± 1.85% (C57 mouse, female, B16/F1 melanoma, urine; intravenous, 0.037 MBq, 4 h).
The solubility of `CC(C)=CCC[C@](C)(O)[C@H]1CC[C@]2(C)[C@@H]1[C@H](O)C[C@@H]1[C@@]3(C)CC[C@H](O)C(C)(C)[C@@H]3CC[C@]12C` is reported as 5370 ± 887 µg/mL (≈ 11.7 mM) (Tween 20; 72 h, 25 °C).
For `CC1=CC(C)(C)N=C2C=CC(=O)C=C12`, the tissue residue was 5.6 ± 1.5 ng/g (LC-MS/MS; laying hens, liver; oral in feed, 50 mg/kg feed ethoxyquin, 56 days, after glucuronidase treatment).
For `Cc1ccc(OCC(=O)N(Cc2cccs2)c2ccn[nH]2)cc1`, “relative peak area” read 3.15% (LC-MS extracted ion chromatogram; human liver microsomes; 10 µM, 60 min; reference: parent at time 0 min).
`CCCCC/C=C/C=C/C(=O)NCC(C)C` gave a relative error of 0.27% (rat plasma; 250 ng/mL, three freeze-thaw cycles medium QC; reference: nominal concentration).
`CC[C@H](C)[C@H](NC(=O)[C@@H]1CCCN1C(=O)CNC(=O)[C@H](Cc1ccccc1)NC(=O)[C@H](CC(N)=O)NC(=O)[C@H](CC(N)=O)NC(=O)[C@H](CO)NC(=O)[C@H](CO)NC(=O)[C@H](Cc1c[nH]cn1)NC(=O)[C@@H](NC(=O)[C@H](CC(C)C)NC(=O)[C@H](Cc1ccccc1)NC(=O)[C@H](CC(N)=O)NC(=O)[C@H](C)NC(=O)[C@H](CC(C)C)NC(=O)[C@H](CCCNC(=N)N)NC(=O)[C@H](CCC(N)=O)NC(=O)[C@@H](NC(=O)[C@H](C)NC(=O)[C@@H]1CSSC[C@H](NC(=O)[C@@H](N)CCCCN)C(=O)N[C@@H](CC(N)=O)C(=O)N[C@@H]([C@@H](C)O)C(=O)N[C@@H](C)C(=O)N[C@@H]([C@@H](C)O)C(=O)N1)[C@@H](C)O)C(C)C)C(=O)N[C@@H](CC(C)C)C(=O)N[C@@H](CO)C(=O)N[C@@H](CO)C(=O)N[C@H](C(=O)N[C@@H](CC(N)=O)C(=O)N[C@H](C(=O)NCC(=O)N[C@@H](CO)C(=O)N[C@@H](CC(N)=O)C(=O)N[C@H](C(=O)N[C@@H](Cc1ccc(O)cc1)C(N)=O)[C@@H](C)O)C(C)C)[C@@H](C)O` — result for “collision cross section”: 550 ± 7.8 Å² (ion mobility mass spectrometry; nitrogen drift gas; monomer ion charge +3).
With `COc1cc2c(cc1OC)CN(CCCCn1ccc3cc(OCC[18F])ccc31)C2` the uptake was 7.47 ± 0.93 %ID/organ (ICR mice, male, small intestine; intravenous, 2 min).
`NCCC(=O)N1Cc2ccccc2-c2c(nnn2-c2nc3c(N)ncnc3n2C2OC(CO)C(O)C2O)-c2ccccc21` (mixture of isomers) has an excitation maximum of 293 nm (methanol).
